Measurements of several laboratories.
Each line is one published result; not all experiments were run side by side. “And” joins repeats or separate records; there may be more than shown. ± marks the error that the study gave.
ALB: Albumin (ALB, Homo sapiens, UniProt P02768)
Sequence of UniProt P33261 (whole entry, looked up): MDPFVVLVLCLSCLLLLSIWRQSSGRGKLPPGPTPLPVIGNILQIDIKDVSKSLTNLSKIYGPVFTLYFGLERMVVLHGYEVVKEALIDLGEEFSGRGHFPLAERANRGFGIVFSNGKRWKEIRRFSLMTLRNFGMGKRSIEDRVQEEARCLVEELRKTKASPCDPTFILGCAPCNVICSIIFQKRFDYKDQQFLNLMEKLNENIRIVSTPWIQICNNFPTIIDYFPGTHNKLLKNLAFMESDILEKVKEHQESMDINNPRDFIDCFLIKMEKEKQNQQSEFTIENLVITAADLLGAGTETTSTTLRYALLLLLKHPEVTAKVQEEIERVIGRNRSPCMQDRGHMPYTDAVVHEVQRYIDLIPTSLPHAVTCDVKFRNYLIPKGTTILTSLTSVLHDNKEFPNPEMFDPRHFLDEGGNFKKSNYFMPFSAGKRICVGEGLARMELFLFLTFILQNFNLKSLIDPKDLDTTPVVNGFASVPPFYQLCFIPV

SMILES | tested on | test | test system | setting | how to read | quantity | value
N#C[C@@H]1CC(F)(F)CN1C(=O)CNC(=O)c1ccnc2c(NC(=O)[C@@H](N)CCCCNC(=O)CCOCCOCCOCCOCCOCCOCCNC(=O)CN3CCN(CC(=O)[O-])CCN(CC(=O)[O-])CCN(CC(=O)[O-])CC3)cccc12.[177Lu+3] | U-87 MG tumour model | – | host not given, pancreas | 48 h, tumour-bearing | – | tracer uptake | 0.05 %ID/g
COc1cccc(OC)c1-c1cc(C(=O)NC2(C(=O)O)C3CC4CC(C3)CC2C4)nn1-c1ccc(C(=O)N(C)CCCN(C)CCCN(C)C(=O)[C@H](CCCCNC(=O)[C@H](CC(C)C)NC(=O)C2OC2C(=O)O)NC(=O)CN2CCN(CC(=O)[O-])CCN(CC(=O)[O-])CCN(CC(=O)[O-])CC2)cc1C(C)C.[177Lu+3] (mixture of isomers) | HT-29 tumour model | – | host not given, stomach | 7 days, tumour-bearing | – | tracer uptake | 0.072 %ID/g
N#C[C@@H]1CC(F)(F)CN1C(=O)CNC(=O)c1ccnc2c(NC(=O)[C@H](CCCCNC(=O)CCOCCOCCOCCOCCOCCOCCNC(=O)CN3CCN(CC(=O)[O-])CCN(CC(=O)[O-])CCN(CC(=O)[O-])CC3)NC(=O)CCCc3ccc(I)cc3)cccc12.[177Lu+3] | U-87 MG tumour model | – | host not given, stomach | 1 h, tumour-bearing | – | tracer uptake | 4.72 %ID/g
Cc1nc(N)nc2c1C(=O)N[C@@H](c1ccc(F)cc1-c1cccc(O[11CH3])n1)C2 | – | radioligand, ex vivo biodistribution | mouse, MDA-MB-231 xenograft, red blood cells | 60 min p.i. | – | SUV | 0.9 ± 0.1
O=C(Nc1cnccc1-c1ccc([18F])cc1)c1ccnc(NC(=O)C2CC2)c1 | – | ex vivo biodistribution, gamma counting | GSK-3β overexpressing transgenic mouse, late stage, adipose tissue | intravenous, 120 min post-injection, with: tariquidar 15 mg/kg iv, at least 2 h before tracer | – | mean SUV | 0.23
CC(C)Cc1ccc(C(C)C(=O)N[C@@H](CCCCNC(=O)CCOCCOCCOCCOCCOCCOCCNC(=O)CN2CCN(CC(=O)[O-])CCN(CC(=O)[O-])CCN(CC(=O)[O-])CC2)C(=O)Nc2cccc3c(C(=O)NCC(=O)N4CC(F)(F)C[C@H]4C#N)ccnc23)cc1.[177Lu+3] (some centres unmarked) | U-87 MG tumour model | – | host not given, heart | 48 h, tumour-bearing | – | tracer uptake | 0.25 %ID/g
CNC(=O)C1CCCN(C(=O)C2CC3CCC2N3C(=O)[C@@H]2C[C@@H](O)CN2C(=O)NCc2cccc(Cl)c2F)C1 (mixture of isomers) | Cytochrome P450 2C19 (CYP2C19, Homo sapiens, UniProt P33261) | enzyme activity, inhibitor, time-dependent inhibition | – | 50 µM, preincubated without NADPH | relative to: negative control | remaining activity | 83.7%
Nc1nc2cc(C(=O)c3ccc(F)cc3)ccc2[nH]1 | Salmonella typhimurium | Ames preincubation test | TA100 | 39.0 µg/plate, without S9 | – | revertants | 129 revertants/plate
N[C@@H](CNC(=O)N[C@@H](CS)C(=O)NCC(=O)O)C(=O)O | RPMI-2650 | – | – | A-to-B, air-liquid interface | – | apparent permeability | 35.3 ×10⁻⁶ cm/s
COc1cccc(OC)c1-c1cc(C(=O)NC2(C(=O)O)C3CC4CC(C3)CC2C4)nn1-c1ccc(C(=O)N(C)CCOCCOCCN(C)C(=O)[C@H](CCCCNC(=O)[C@H](CC(C)C)NC(=O)C2OC2C(=O)O)NC(=O)CN2CCN(CC(=O)[O-])CCN(CC(=O)[O-])CCN(CC(=O)[O-])CC2)cc1C(C)C.[177Lu+3] (mixture of isomers) | HT-29 tumour model | – | host not given, stomach | 4 h, tumour-bearing | – | tracer uptake | 0.83 %ID/g
CN1CCN(c2ccc3[nH]c(-c4ccc5[nH]c(-c6ccc(OCCCCNC(=O)c7ccc8c(c7)C(=O)OC87c8ccc(N(C)C)cc8C(C)(C)c8cc(N(C)C)ccc87)cc6)nc5c4)nc3c2)CC1 | ALB | binding, fluorescence titration | PBS | 1 h | – | Kd | 18 ± 4 µM
O=C1C2CC3CC1CC(C(=O)N1CCN(c4ccc([N+](=O)[O-])c5ncccc45)CC1)(C3)C2 | Salmonella typhimurium | Ames test | TA100 | 0.02 µg/well, with S9 | – | mean revertant colonies | 29 colonies/well
COC(=O)Nc1nc2cc(C(O)c3ccc(F)cc3)ccc2[nH]1 (centres unmarked) | Salmonella typhimurium | Ames preincubation test | TA100 | 54.7 µg/plate, without S9 | – | revertants | 134 revertants/plate
CCN(CC)CC#CCNc1ccnc2cc(Cl)ccc12 | Salmonella typhimurium | mini-Ames test | TA97a | 62.5 µg/well, with rat liver S9 | – | revertants per well | 17
CC(C)OCCOCc1ccc(OCC(O)CN(N=O)C(C)C)cc1 (centres unmarked) | Salmonella typhimurium | Ames test | TA1537 | 158 µg/plate, 30 % hamster S9 | relative to: solvent control | revertant fold increase | 0.7 fold
Cc1nc(Nc2ncc(C(=O)Nc3c(C)cccc3Cl)s2)cc(N2CCN(C(=O)CCOCCNC(=O)CN)CC2)n1 | K562 | cell growth or viability, CCK-8 | – | 2.5 nM | – | viability | 83% and 79%
O=C(OC[C@@]1(O)C(=O)C=C[C@H]2[C@@H]1[C@H]1C=C[C@@H]2C(=O)[C@]1(O)COC(=O)c1ccccc1)c1ccccc1 | K562 | cell growth or viability, MTT | – | 6.25 µg/mL | – | viability | 98.5%
CN(C)c1ccc2c(c1)[Si](C)(C)c1cc(N(C)C)ccc1C21OC(=O)c2c(C(=O)O)cccc21 | ALB | binding, fluorescence titration | PBS | – | – | Kd | 12 ± 1 µM
C=C(NC(=O)c1csc(-c2nc3c(cc2O)-c2nc(cs2)C(=O)NC(C(C)O)C(=O)NC(=C(C)OC)c2nc(cs2)C(=O)NC2c4nc(cs4)C(=O)NC(COC(=O)c4c5c6c(cccc6n4O)COC(=O)C(OC4CC(C)(O)C(N(C)C)C(C)O4)C2OC5)c2nc-3cs2)n1)C(N)=O (centres unmarked) | – | – | ICR mice, Streptococcus pneumoniae ATCC 49169 infected, immunocompromised, blood | intravenous, 32 mg/kg/day three times daily | – | MRT(0-t) | 8.04 h
CCc1c(-c2ccc3[nH]ncc3c2)cnc(N)c1-c1ccc(O)cc1 | CHP-212 resistant sublines (heterozygous USP7 V517F) | cell viability | – | 6.25 µM | – | viability | 103% and 101%

A few entries again:
SMILES | tested on | test | test system | setting | how to read | quantity | value
COc1cccc(OC)c1-c1cc(C(=O)NC2(C(=O)O)C3CC4CC(C3)CC2C4)nn1-c1ccc(C(=O)N(C)CCOCCOCCN(C)C(=O)[C@H](CCCCNC(=O)[C@H](CC(C)C)NC(=O)C2OC2C(=O)O)NC(=O)CN2CCN(CC(=O)[O-])CCN(CC(=O)[O-])CCN(CC(=O)[O-])CC2)cc1C(C)C.[177Lu+3] (mixture of isomers) | HT-29 tumour model | – | host not given, stomach | 4 h, tumour-bearing | – | tracer uptake | 0.83 %ID/g
CN1CCN(c2ccc3[nH]c(-c4ccc5[nH]c(-c6ccc(OCCCCNC(=O)c7ccc8c(c7)C(=O)OC87c8ccc(N(C)C)cc8C(C)(C)c8cc(N(C)C)ccc87)cc6)nc5c4)nc3c2)CC1 | ALB | binding, fluorescence titration | PBS | 1 h | – | Kd | 18 ± 4 µM
O=C1C2CC3CC1CC(C(=O)N1CCN(c4ccc([N+](=O)[O-])c5ncccc45)CC1)(C3)C2 | Salmonella typhimurium | Ames test | TA100 | 0.02 µg/well, with S9 | – | mean revertant colonies | 29 colonies/well
